Experimental data pooled from the literature.
Each numbered part is a random draw from the data of one study; scales do not carry over between parts.

Set 1 — technique: protein-binding microarray; molecule type: double-stranded DNA, one strand shown; medium: in vitro; tested at: 2540 nM top; notes: 60-bp whole probe; together with: salmon DNA 0.4 mg/ml; baseline: random background probes; reading: higher = stronger binding; all sequences stand within: GCCTAGCAC … GTCTTGATTCGCTTGACGCTGCTG
Target: Interferon regulatory factor 3, full length, phosphomimetic (IRF3, Homo sapiens, UniProt Q14653, residues 1-427, S386D/S396D/S398D/S402D/T404D/S405D)
Target sequence (chain): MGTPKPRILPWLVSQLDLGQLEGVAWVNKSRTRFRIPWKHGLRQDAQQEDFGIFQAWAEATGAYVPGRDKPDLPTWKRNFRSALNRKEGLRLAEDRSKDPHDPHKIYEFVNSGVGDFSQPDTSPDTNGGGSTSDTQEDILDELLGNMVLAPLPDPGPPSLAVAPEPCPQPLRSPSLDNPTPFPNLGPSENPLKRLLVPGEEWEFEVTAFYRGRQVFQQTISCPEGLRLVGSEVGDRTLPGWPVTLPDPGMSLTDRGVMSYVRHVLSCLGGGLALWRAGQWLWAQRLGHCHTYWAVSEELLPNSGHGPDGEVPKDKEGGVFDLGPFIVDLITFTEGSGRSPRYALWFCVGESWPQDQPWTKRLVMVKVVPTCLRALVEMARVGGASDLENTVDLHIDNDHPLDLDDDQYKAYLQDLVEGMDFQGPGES
| Oligonucleotide | fitted relative affinity [z-score] |
| --- | --- |
| TCAAAGATTTTTATCAAACTGTGCTAG | -0.24 |
| TTAGGACCGGACTTTCGGTTAGTGCTA | 1.4 |
| TGCTTCCTCTTTCTCTGCTAGTGCTAG | 2.39 |
| GACGATATCGGGATTGGAGACGTGCTA | 0.259 |
| GACGAACTAAGTATCGAGACGTGCTAG | 0.383 |
| GACGGACTGGGAATCGGGACGTGCTAG | -0.602 |
| TTAGATATCGACTATCGGTTAGTGCTA | -0.066 |
| GACCATATCGGGTTTCGAGACGTGCTA | 1.87 |
| GTCGGACTGGGGTTTCGGGACGTGCTA | 0.903 |
| GACGATCTCAGTATCGAGAGGTGCTAG | 0.66 |
| GACGCACTGGACACTGGGGACGTGCTA | -0.634 |
| TTAGGACTGCTTTTGCTTTAGTGCTAG | -0.0816 |
| TTAGCTATCGACTATCGGTTAGTGCTA | -0.136 |
| TTAGAACTCAGACTGGATTAGTGCTAG | -0.189 |
| TTAGGTGTCGGTCTCGGTTAGTGCTAG | 2.87 |
| GACGATTTCAGTTCAGAGACGTGCTAG | 2.39 |

Set 2 — technique: RNA Bind-n-Seq; molecule type: RNA; medium: in vitro; tested at: 100 nM; baseline: input RNA pool; reading: higher = stronger binding
Target: RING finger protein unkempt homolog, zinc fingers 1-6, SBP tag (UNK, Homo sapiens, UniProt Q9C0B0, residues 30-357)
UniProt Q9C0B0, sequence (30-357, looked up): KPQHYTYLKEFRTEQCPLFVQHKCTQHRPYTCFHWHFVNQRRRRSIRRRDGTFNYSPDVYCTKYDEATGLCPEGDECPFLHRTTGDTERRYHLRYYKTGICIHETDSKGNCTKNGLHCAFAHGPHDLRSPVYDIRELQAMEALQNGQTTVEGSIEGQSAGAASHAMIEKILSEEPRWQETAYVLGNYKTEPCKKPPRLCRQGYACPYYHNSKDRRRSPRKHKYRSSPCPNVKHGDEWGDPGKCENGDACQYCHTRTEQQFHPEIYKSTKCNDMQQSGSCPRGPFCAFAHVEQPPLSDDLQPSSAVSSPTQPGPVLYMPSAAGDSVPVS
Notes: RNA with constant flanks, vertebrate orthologous sites, ends assumed
All sequences stand within: GGGAGUUCUACAGUCCGACGAUC … CAACAGAGGAUUGAGCAUCA
| Oligonucleotide | bound/input enrichment [ratio] |
| --- | --- |
| AUUAGCCACCUCUGAUCAAGGGACACCAAACGGAGCAAGGAGUAAAAUUGCUGCCAUGUGCACAAUGGCUACACCGCAGUCCCUCUUCAGUGUAAAACCAGCUGUGUGUAAGUGUUGAGG | 0.235 |
| CCUGUAUGUAGAAAACAAUUCUCACUGAAGCCAUUGUCAAGUUUUUCCCCCUAGACCUGGACUGGAGAUGUUUAAUUUUAUACACGCUUGCUGUGUUGGUCAUCGGUAGCCGGAGUUCAA | 0.251 |
| CCUCCCCACCACCCCUAAAAUAGAACUUUGAAAACUGUUUUGCCACCACUUCAAAAGAUUUAGCAAUAUUAGAAUAAAACACGAAUGAAGUAAGAAAUUUUGCUCAUUGUUUUGCAAGCC | 3.23 |
| GGGACGCUUUGAUGUAAAAAUUGAAGUUAAGAGCUGAUCACAAGCACAGAUCCUCCCCUCUAGCCAUUUAAUAAGUUAAAAAAUUACAAAAACAAAAACCUACUAGUCUUGAACAAACUG | 7.45 |
| CAUCCUUUCAUACUGUCAUGGACUAGGAUCAGGGACAAAUGUCUGUCUGAGAAACUGCAUUUAAAACAUUUUUUUAAAUCAUUGUACAGGAAGAGAUGGGUCUAAACAGCAUCUCAGAGU | 0.468 |
| CAGGGUGGGACCCGGGACCUACUGCUCAGUGGCCCGCUGGCCACGUCAGCUAAGCCACUUUAGGUCCAUUUUUUAUUUUAACAGUGCUCUUCCAUUCUGUGCGUAAGCCCGAGAUUUGGA | 0.833 |
| ACACUUAUAUCGUGGCAUAUAGUCAACAUGGAAGUAGACCAGCUCUGCUGAUUUGAAAUUUAGAUUUUUUUUAAUUAUGUACUGGGGACAGGUUUUUGUCGCUUUACAUUGCUUCCUAGU | 4.9 |
| CCUCCCCGUUAUCCCUGAAGUAGAACUUUUUAAAAUGUGUUGCCACCACUUCUAAAAAUUUAGCAAUAUCACAAUCAGACAAUAACGAAGUAAGAAAUGUUACUCAUUGUUUUGCAACCA | 1.52 |

Set 3 — technique: RNA Bind-n-Seq; molecule type: RNA; medium: in vitro; tested at: 200 nM; notes: whole 134-nt RNA, ends assumed; together with: 150 mM KCl; baseline: input library; reading: higher = stronger binding
Target: Ras GTPase-activating protein-binding protein 1, full length (G3BP1, Homo sapiens, UniProt Q13283)
UniProt Q13283, sequence (whole entry, looked up): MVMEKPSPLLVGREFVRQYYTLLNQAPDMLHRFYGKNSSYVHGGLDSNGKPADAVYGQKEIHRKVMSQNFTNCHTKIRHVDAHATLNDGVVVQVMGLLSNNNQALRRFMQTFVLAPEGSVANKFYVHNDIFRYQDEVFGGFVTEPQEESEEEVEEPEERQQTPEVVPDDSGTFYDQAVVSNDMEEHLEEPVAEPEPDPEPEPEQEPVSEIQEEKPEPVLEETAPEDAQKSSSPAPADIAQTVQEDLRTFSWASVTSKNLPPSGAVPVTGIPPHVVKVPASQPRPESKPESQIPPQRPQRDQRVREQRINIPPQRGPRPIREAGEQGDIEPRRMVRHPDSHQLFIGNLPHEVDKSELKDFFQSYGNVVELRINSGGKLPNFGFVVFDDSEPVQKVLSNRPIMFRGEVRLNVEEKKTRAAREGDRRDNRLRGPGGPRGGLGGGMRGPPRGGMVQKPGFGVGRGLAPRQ
All sequences stand within: GGGAGUUCUACAGUCCGACGAUC … UGGAAUUCUCGGGUGUCAAGG
| Oligonucleotide | log2 enrichment |
| --- | --- |
| GUCCUGUGCUACACAUCGUAUGUACCGAAUCGGGGUUUUUUUGGGGUUUGGGGUGGGGAAAGUAUUAUGUUACGCCGUUCGGAUCUGCAC | 0.239 |
| AGUCCUGUGCUACACAUCGUAUGUACCGAAUCGGGUUUUUGGUUUUUGGGUUUUUGGAAAGUAUUAUGUUACGCCGUUCGGAUCUGCACU | -1.21 |
| AGCCGAGCGGGAACGGAACCGACAGCUGGAGCGAGAGAAACGUCGGGAGCACAGUCGGGAGAGGGACAGGGAGAGAGAGAGAGAAAGGGA | 0.474 |
| UCCUGUGCUACACAUCGUAUGUACCGAAUCGGGGCCCCCCGGCCCCCCGGGCCCCCCGGGAAAGUAUUAUGUUACGCCGUUCGGAUCUGC | 0.00851 |
| AAGUCCUGUGCUACACAUCGUAUGUACCGAAUCGGUUUUGGUUUUGGGGUUUUGGGAAAGUAUUAUGUUACGCCGUUCGGAUCUGCACUU | -1.01 |
| CACAGACAACACAAACCCACACAGACACAGAGGGAAGGGGUUGGGAUGGGGACAGGGUGCACAGCAGGGCGGGGUAGGACCCCAGCCCCU | 1.92 |
| AAGUCCUGUGCUACACAUCGUAUGUACCGAAUCGGGAAAAAGGGAAAAAGGGUGGGAAAGUAUUAUGUUACGCCGUUCGGAUCUGCACUU | 0.477 |
| UCCUCAAGUCCUGUGCUACACAUCGUAUGUACCGAAUCGGGUGGUGGGGUGGAAAGUAUUAUGUUACGCCGUUCGGAUCUGCACUUCCAG | 0.497 |
| UCGCCCUGGUGGCAUGCGGGGAGGAAGAGGUGGCCUCAUGGAUCGUGGUGGUCCCGGUGGAAUGUUCAGAGGUGGCCGUGGUGGAGACAG | 0.203 |

Set 4 — technique: universal PBM; molecule type: double-stranded DNA, one strand shown; medium: in vitro; tested at: 600 nM; reading: higher = stronger binding
Target: Sal-like protein 4, full length isoform A (SALL4, Homo sapiens, UniProt Q9UJQ4, residues 1-1053)
UniProt Q9UJQ4, sequence (whole entry, looked up): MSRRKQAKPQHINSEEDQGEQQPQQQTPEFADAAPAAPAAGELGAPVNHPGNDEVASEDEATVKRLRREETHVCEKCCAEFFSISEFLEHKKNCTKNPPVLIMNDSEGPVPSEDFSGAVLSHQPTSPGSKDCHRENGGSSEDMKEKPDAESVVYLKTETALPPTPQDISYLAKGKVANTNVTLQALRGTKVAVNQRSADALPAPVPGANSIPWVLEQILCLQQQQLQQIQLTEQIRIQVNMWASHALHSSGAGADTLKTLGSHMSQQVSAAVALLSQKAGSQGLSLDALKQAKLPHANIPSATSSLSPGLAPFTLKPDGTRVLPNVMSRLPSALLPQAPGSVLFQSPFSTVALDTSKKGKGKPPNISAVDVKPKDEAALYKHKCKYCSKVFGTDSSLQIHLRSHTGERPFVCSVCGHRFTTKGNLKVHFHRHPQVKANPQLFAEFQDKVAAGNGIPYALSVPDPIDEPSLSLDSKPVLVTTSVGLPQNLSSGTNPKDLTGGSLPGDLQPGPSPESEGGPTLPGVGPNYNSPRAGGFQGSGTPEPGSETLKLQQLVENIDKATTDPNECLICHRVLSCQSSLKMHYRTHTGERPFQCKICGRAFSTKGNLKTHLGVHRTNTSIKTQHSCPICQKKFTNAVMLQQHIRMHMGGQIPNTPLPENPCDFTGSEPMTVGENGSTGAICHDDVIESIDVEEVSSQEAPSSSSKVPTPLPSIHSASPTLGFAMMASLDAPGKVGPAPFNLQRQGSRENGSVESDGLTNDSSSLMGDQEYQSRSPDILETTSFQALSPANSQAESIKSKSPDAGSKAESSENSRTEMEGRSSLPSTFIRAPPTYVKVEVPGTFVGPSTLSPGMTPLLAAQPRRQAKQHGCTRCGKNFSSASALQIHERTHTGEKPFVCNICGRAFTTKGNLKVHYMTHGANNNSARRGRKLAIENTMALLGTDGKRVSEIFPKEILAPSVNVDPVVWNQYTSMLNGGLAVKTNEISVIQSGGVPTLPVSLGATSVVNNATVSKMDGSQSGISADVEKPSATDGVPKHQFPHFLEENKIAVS
Notes: 8-mer, flanks averaged, mean of replicates
| Oligonucleotide | E-score |
| --- | --- |
| GGGGGTCA | -0.301 |
| CCAGGTGA | -0.158 |
| CAAAGCGG | -0.117 |
| GGCGCGTA | -0.164 |
| AGCGCCAC | -0.34 |
| ATAGGAAC | 0.133 |
| GTAACATA | 0.223 |
| ACAGGGCT | -0.287 |
| CGGAAAAC | -0.0253 |
| ACTACCGC | 0.00894 |
| GAGACACA | -0.0275 |
| CGCTAGCG | -0.301 |
| ACTAATTA | 0.349 |
| AGCGTAAG | -0.123 |
| CATCAGTA | 0.187 |
| ACGCAACG | -0.0854 |
| ATGCAATC | 0.108 |
| AAATAATA | 0.424 |
| ATTGGCAG | -0.112 |
| GCCTGTAA | -0.0476 |
| CCCAACTA | 0.0638 |

Set 5 — technique: protein binding microarray; molecule type: double-stranded DNA, one strand shown; medium: in vitro; tested at: not given; baseline: not given; reading: higher = stronger binding
Target: Histone acetyltransferase KAT6A, winged helix 2, GST fusion (KAT6A, Homo sapiens, UniProt Q92794, residues 85-181)
Notes: 8-mer, flanks averaged, mean of 2 arrays, mostly near background
Target sequence (chain): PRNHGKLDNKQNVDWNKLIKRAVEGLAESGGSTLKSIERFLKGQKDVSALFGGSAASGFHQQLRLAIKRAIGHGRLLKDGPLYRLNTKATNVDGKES
| Oligonucleotide | E-score |
| --- | --- |
| CGGCAGTA | 0.0105 |
| ATAGACGG | 0.0607 |
| CTGTTAAC | 0.0743 |
| CTTAATAC | -0.00326 |
| GAAGTACA | -0.0259 |
| CGGTCGCA | 0.0964 |
| CGCTTACA | 0.0214 |
| CCATTACG | -0.214 |
| AGGTTACC | 0.0321 |
| ACGTATCC | -0.243 |
| GCACGGTA | -0.0719 |
| TATTTACA | -0.136 |
| ACAAACCT | -0.103 |
| GGTGATTA | -0.0172 |
| ATTGTGGG | 0.00741 |
| ATAGGCAA | -0.0634 |
| AATGGTCG | -0.0359 |
| CGATAATC | -0.218 |
| GAGGCCAC | 0.0348 |
| TAGTAACA | 0.065 |
| AAAATGCC | 0.0507 |
| CCAAAGAA | 0.133 |

For quick reference, copied from above (set 3):
| Oligonucleotide | log2 enrichment |
| --- | --- |
| UCCUGUGCUACACAUCGUAUGUACCGAAUCGGGGCCCCCCGGCCCCCCGGGCCCCCCGGGAAAGUAUUAUGUUACGCCGUUCGGAUCUGC | 0.00851 |
| AAGUCCUGUGCUACACAUCGUAUGUACCGAAUCGGUUUUGGUUUUGGGGUUUUGGGAAAGUAUUAUGUUACGCCGUUCGGAUCUGCACUU | -1.01 |
| AGCCGAGCGGGAACGGAACCGACAGCUGGAGCGAGAGAAACGUCGGGAGCACAGUCGGGAGAGGGACAGGGAGAGAGAGAGAGAAAGGGA | 0.474 |
| AAGUCCUGUGCUACACAUCGUAUGUACCGAAUCGGGAAAAAGGGAAAAAGGGUGGGAAAGUAUUAUGUUACGCCGUUCGGAUCUGCACUU | 0.477 |
| CACAGACAACACAAACCCACACAGACACAGAGGGAAGGGGUUGGGAUGGGGACAGGGUGCACAGCAGGGCGGGGUAGGACCCCAGCCCCU | 1.92 |
| UCCUCAAGUCCUGUGCUACACAUCGUAUGUACCGAAUCGGGUGGUGGGGUGGAAAGUAUUAUGUUACGCCGUUCGGAUCUGCACUUCCAG | 0.497 |
| UCGCCCUGGUGGCAUGCGGGGAGGAAGAGGUGGCCUCAUGGAUCGUGGUGGUCCCGGUGGAAUGUUCAGAGGUGGCCGUGGUGGAGACAG | 0.203 |
| GUCCUGUGCUACACAUCGUAUGUACCGAAUCGGGGUUUUUUUGGGGUUUGGGGUGGGGAAAGUAUUAUGUUACGCCGUUCGGAUCUGCAC | 0.239 |
| AGUCCUGUGCUACACAUCGUAUGUACCGAAUCGGGUUUUUGGUUUUUGGGUUUUUGGAAAGUAUUAUGUUACGCCGUUCGGAUCUGCACU | -1.21 |
